Measured values gathered from unrelated publications.
Every numbered part comes from another study and shows a few of its results, in no order. ± gives the spread as reported.
Chain of UniProt Q86U86 (whole entry, looked up): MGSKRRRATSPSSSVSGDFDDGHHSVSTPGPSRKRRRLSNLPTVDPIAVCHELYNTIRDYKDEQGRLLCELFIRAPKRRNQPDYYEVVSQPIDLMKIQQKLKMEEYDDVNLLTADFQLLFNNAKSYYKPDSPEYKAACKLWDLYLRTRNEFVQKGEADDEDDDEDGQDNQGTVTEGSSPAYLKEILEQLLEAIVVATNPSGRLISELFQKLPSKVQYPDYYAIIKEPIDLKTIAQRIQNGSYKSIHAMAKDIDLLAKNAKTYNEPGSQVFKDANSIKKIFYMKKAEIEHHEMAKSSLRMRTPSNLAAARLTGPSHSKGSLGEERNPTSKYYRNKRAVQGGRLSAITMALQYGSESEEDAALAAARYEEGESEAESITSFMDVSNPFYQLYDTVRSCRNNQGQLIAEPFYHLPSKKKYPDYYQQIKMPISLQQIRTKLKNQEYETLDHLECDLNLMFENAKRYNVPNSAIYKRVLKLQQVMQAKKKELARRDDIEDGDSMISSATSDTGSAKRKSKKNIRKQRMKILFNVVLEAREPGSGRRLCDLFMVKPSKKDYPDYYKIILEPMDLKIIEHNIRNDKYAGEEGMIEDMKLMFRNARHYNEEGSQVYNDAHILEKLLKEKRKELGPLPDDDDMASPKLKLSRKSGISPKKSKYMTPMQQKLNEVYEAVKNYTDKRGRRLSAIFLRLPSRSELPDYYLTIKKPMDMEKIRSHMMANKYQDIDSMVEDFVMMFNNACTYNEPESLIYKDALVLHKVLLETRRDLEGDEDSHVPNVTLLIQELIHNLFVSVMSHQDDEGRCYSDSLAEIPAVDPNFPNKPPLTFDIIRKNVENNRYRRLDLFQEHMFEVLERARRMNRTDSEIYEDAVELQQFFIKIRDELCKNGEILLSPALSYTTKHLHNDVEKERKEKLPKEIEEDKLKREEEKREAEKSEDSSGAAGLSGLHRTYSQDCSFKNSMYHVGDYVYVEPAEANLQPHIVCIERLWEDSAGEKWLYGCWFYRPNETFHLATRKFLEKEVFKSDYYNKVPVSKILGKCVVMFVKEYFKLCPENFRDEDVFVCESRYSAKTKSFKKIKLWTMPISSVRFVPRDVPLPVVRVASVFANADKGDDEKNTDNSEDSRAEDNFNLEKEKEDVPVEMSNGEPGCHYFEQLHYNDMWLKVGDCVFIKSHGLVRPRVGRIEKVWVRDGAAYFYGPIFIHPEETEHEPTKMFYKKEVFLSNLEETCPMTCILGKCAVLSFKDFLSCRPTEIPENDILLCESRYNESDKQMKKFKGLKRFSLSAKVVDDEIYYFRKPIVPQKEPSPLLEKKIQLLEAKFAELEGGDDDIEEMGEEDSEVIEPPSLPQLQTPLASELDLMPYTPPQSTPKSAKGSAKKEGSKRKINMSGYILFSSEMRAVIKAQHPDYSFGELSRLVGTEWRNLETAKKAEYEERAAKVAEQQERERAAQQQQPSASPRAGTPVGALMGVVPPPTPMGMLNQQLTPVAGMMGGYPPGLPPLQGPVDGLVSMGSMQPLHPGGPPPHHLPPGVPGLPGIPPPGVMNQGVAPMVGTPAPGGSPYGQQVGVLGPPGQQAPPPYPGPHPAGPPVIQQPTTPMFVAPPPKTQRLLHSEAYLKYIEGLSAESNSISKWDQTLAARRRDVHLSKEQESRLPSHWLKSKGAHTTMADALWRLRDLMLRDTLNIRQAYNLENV
Chain of UniProt P08631 (whole entry, looked up): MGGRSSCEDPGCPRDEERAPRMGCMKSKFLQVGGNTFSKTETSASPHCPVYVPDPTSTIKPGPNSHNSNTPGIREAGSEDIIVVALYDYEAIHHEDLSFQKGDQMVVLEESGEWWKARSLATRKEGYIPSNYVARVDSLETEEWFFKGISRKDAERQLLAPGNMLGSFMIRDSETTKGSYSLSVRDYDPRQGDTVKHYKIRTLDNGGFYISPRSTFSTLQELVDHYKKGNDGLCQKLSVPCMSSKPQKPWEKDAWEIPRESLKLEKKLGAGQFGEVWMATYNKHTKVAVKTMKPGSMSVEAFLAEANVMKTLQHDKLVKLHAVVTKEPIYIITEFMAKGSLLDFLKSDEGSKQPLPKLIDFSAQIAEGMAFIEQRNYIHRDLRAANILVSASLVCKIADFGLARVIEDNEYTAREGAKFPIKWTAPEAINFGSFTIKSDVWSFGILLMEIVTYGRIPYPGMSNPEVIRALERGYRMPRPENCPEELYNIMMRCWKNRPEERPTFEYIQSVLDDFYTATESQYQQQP
Chain of UniProt Q92831 (whole entry, looked up): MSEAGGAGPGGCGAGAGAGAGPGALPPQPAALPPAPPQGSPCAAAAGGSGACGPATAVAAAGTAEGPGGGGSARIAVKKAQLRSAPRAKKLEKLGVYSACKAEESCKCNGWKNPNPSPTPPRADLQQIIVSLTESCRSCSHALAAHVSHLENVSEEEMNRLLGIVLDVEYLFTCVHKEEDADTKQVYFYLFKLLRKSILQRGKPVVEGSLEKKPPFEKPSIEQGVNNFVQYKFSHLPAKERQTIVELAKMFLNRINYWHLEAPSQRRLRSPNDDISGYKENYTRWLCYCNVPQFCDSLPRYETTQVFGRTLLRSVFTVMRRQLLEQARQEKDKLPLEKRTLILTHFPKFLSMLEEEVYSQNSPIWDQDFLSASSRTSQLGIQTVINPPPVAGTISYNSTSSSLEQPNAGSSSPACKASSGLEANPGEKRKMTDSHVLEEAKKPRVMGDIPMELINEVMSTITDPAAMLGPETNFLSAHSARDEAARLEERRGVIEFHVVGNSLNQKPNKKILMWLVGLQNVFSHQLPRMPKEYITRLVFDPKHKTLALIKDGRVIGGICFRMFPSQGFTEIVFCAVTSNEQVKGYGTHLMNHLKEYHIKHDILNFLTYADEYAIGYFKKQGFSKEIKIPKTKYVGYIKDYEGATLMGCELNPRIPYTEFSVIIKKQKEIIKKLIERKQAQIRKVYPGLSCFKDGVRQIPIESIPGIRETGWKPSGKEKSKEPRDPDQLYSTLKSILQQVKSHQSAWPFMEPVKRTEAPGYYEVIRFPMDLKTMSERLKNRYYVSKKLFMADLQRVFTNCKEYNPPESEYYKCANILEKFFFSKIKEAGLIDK
Chain of UniProt Q15349 (whole entry, looked up): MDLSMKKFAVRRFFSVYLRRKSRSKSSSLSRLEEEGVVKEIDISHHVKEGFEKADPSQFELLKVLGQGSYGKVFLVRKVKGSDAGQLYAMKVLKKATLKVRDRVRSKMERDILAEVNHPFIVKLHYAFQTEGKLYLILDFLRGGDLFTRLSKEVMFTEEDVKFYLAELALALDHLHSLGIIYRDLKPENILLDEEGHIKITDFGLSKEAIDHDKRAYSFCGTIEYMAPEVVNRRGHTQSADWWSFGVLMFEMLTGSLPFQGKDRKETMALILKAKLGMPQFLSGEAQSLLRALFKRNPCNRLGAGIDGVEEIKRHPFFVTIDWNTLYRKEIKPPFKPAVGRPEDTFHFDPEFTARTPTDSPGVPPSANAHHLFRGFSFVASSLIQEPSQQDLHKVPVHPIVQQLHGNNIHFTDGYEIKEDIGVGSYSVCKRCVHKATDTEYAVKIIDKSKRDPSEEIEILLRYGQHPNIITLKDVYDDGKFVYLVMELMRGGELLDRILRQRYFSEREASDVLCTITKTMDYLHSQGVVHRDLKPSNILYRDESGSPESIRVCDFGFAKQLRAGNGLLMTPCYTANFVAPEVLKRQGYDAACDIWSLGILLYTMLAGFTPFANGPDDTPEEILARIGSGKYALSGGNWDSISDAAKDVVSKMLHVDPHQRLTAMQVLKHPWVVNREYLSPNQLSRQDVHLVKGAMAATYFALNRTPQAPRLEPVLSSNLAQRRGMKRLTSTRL
Chain of UniProt P49674 (whole entry, looked up): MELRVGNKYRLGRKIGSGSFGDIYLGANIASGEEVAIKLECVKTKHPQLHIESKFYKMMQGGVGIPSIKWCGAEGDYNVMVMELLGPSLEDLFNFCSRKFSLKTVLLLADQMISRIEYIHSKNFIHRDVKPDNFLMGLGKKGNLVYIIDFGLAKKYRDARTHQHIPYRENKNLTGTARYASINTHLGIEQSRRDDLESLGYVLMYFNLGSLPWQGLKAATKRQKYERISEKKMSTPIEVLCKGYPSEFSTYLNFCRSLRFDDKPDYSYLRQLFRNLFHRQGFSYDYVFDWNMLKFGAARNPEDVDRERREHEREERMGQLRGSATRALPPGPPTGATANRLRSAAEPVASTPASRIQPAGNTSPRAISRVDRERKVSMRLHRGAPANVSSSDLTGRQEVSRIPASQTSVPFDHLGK

Sample 1
SMILES: CCC(=O)N[C@@H]1CC[C@H](C(=O)N(C)c2ccc(-c3nc4ccccc4o3)cc2)C1
Read-out: cell-free assay
Method: competition with immobilised ligand
Tested at: 1 µM
Quantity: remaining binding
Tyrosine-protein kinase ABL1, non-phosphorylated (ABL1, Homo sapiens, UniProt P00519): 76%
Tyrosine-protein kinase Tec (TEC, Homo sapiens, UniProt P42680): 100%
Receptor-type tyrosine-protein kinase FLT3 (FLT3, Homo sapiens, UniProt P36888, ITD): 100%
Ephrin type-B receptor 3 (EPHB3, Homo sapiens, UniProt P54753): 100%
Atypical kinase COQ8B, mitochondrial (COQ8B, Homo sapiens, UniProt Q96D53): 94%
Serine/threonine-protein kinase SIK2 (SIK2, Homo sapiens, UniProt Q9H0K1): 100%
Serine/threonine-protein kinase Sgk1 (SGK1, Homo sapiens, UniProt O00141): 100%
Ephrin type-B receptor 1 (EPHB1, Homo sapiens, UniProt P54762): 100%
Tyrosine-protein kinase HCK (HCK, Homo sapiens, UniProt P08631): 100%
Ribosomal protein S6 kinase alpha-2, N-terminal kinase domain (RPS6KA2, Homo sapiens, UniProt Q15349): 86%
Tyrosine-protein kinase ZAP-70 (ZAP70, Homo sapiens, UniProt P43403): 100%
Phosphatidylinositol 4-phosphate 5-kinase type-1 gamma (PIP5K1C, Homo sapiens, UniProt O60331): 100%
Serine/threonine-protein kinase WNK4 (WNK4, Homo sapiens, UniProt Q96J92): 100%
Serine/threonine-protein kinase TAO2 (TAOK2, Homo sapiens, UniProt Q9UL54): 89%
Serine/threonine-protein kinase MAK (MAK, Homo sapiens, UniProt P20794): 100%
Phosphatidylinositol 4-phosphate 5-kinase type-1 alpha (PIP5K1A, Homo sapiens, UniProt Q99755): 86%
Serine/threonine-protein kinase LATS1 (LATS1, Homo sapiens, UniProt O95835): 58%
Casein kinase I isoform epsilon (CSNK1E, Homo sapiens, UniProt P49674): 100%
Serine/threonine-protein kinase 38 (STK38, Homo sapiens, UniProt Q15208): 80%
Mitogen-activated protein kinase 4 (MAPK4, Homo sapiens, UniProt P31152): 100%

Sample 2
Target: Calcium/calmodulin-dependent protein kinase type II subunit alpha (CAMK2A, Homo sapiens, UniProt Q9UQM7)
Chain of UniProt Q9UQM7 (whole entry, looked up): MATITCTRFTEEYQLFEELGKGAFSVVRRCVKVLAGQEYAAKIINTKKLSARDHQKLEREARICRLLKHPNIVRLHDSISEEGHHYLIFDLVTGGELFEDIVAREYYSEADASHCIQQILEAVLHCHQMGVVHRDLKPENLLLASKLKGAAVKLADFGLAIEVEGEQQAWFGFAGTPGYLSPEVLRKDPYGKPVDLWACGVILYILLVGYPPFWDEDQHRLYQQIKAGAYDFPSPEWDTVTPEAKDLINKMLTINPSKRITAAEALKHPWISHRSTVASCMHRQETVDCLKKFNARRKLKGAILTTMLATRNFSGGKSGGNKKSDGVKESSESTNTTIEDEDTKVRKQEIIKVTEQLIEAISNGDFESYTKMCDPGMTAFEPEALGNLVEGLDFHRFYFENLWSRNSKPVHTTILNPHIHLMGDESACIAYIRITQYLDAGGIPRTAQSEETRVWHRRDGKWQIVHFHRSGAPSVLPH
Read-out: enzyme activity
Action: inhibitor
Tested at: 10 µM
Quantity: inhibition
CN(C)c1cc(CNCC(C)(C)C)c(O)c2c1C[C@H]1C[C@H]3[C@H](N(C)C)C(=O)C(C(N)=O)=C(O)[C@@]3(O)C(=O)C1=C2O: -6%
COc1ccc(-c2oc3cc(OC)c(OC)c(O)c3c(=O)c2OC)cc1O: 5%
CC(C)c1cc2c(c(O)c1O)[C@@]13CCCC(C)(C)[C@@H]1C[C@@H]2OC3=O: -4%
COc1cc(CCC(O)CC(O)CCc2ccc(O)c(OC)c2)ccc1O (stereo not drawn): -2%
CCCc1cc(C(N)=S)ccn1: 1%
CC(=O)O[C@@]1(C)C[C@@H](O)[C@]2(O)C=CO[C@@H](O[C@@H]3O[C@H](CO)[C@@H](O)[C@H](O)[C@H]3O)[C@@H]21: -41%
NC(=O)Cc1cccc(C(=O)c2ccccc2)c1N: -4%
O=c1c2cc(O)c(O)cc2oc2cc(O)c([C@@H]3O[C@H](CO)[C@@H](O)[C@H](O)[C@H]3O)c(O)c12: -17%
N[C@@H](CS(=O)(=O)O)C(=O)O: -66%
C[C@@H]1O[C@@H](O[C@@H]2[C@@H](O)[C@H](O)[C@@H](CO)O[C@H]2c2c(O)cc(O)c3c(=O)cc(-c4ccc(O)cc4)oc23)[C@H](O)[C@H](O)[C@H]1O: 5%

Sample 3
Target: Serine/threonine-protein kinase VRK1 (VRK1, Homo sapiens, UniProt Q99986)
Chain of UniProt Q99986 (whole entry, looked up): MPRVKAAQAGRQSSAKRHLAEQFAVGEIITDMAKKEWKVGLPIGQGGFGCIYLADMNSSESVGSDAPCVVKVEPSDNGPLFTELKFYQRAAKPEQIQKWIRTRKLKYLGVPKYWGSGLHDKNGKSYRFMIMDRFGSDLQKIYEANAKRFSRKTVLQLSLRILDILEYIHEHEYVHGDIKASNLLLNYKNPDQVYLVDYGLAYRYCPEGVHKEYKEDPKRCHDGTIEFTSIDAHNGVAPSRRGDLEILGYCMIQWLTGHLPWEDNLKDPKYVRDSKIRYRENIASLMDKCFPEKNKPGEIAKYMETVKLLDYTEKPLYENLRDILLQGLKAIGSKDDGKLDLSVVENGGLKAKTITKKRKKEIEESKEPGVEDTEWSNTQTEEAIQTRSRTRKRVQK
Read-out: enzyme activity
Action: inhibitor
Tested at: 0.5 µM
Baseline: control
Quantity: remaining activity
CCN(CC)CCNC(=O)c1c(C)[nH]c(/C=C2\C(=O)Nc3ccc(F)cc32)c1C: 97.3%
CN([C@@H](Cc1ccc(OS(=O)(=O)c2cccc3cnccc23)cc1)C(=O)N1CCN(c2ccccc2)CC1)S(=O)(=O)c1cccc2cnccc12: 92.1%
O=C(NC(NC(=S)Nc1ccc(F)c([N+](=O)[O-])c1)C(Cl)(Cl)Cl)C(c1ccccc1)c1ccccc1 (stereo not drawn): 96.7%
COc1cc2c(cc1OC)-c1[nH]nc(Nc3cccc(F)c3)c1C2: 89.9%
Cn1nc2c3c(cccc31)C(=O)c1ccccc1-2: 84.1%
COc1cc2ncnc(Nc3cccc(Cl)c3)c2cc1OC: 105%
O=C1C(Cl)=C(N2C(=O)CCC2=O)C(=O)c2ccccc21: 92.4%
Cc1cn(-c2cc(NC(=O)c3ccc(C)c(Nc4nccc(-c5cccnc5)n4)c3)cc(C(F)(F)F)c2)cn1: 101%
c1ccc(-c2cnc(Nc3ccc(OCCN4CCCC4)cc3)s2)cc1: 89.1%
O=C1c2ccccc2-c2n[nH]c3cccc1c23: 89.2%
Cc1nc2cc3nc(-c4cccs4)cnc3cc2n1C: 95.6%
CN(C)C[C@H]1CCn2c(c(C3=C(c4cn(C)c5ccccc45)C(=O)NC3=O)c3ccccc32)C1: 105%
C[C@@H]1CCN(C(=O)CC#N)C[C@@H]1N(C)c1ncnc2[nH]ccc12: 100%
N#C/C(=C\c1ccc(O)c(O)c1)C(=O)NCc1ccccc1: 97%
O=C(Nc1cccc(Nc2nccc(Nc3cccc(C(F)(F)F)c3)n2)c1)C1CC1: 88.2%
CCN(CC)C(=O)c1ccc(Nc2nc(OCC3CCCCC3)c3[nH]cnc3n2)cc1: 93.1%
O=c1cc(-c2cccc3c2Sc2ccccc2S3)oc(N2CCOCC2)c1: 90.7%
CCN(CC)CCNC(=O)c1c(C)[nH]c(/C=C2\C(=O)Nc3ccc(Cl)cc32)c1C: 90.7%
Cc1cc2ncc(-c3ccccc3)nc2cc1C: 101%
Nc1cccc(-c2cc3c(Oc4cccc(O)c4)ncnc3[nH]2)c1: 81.6%
c1ccc(-c2[nH]ncc2-c2ccnc3ccccc23)nc1: 92.6%
CCOc1nc(NC(=O)Cc2cc(OC)ccc2OC)cc(N)c1C#N: 92.6%
Ic1cccc(CSc2nnc(-c3ccncc3)o2)c1: 93.1%
N#Cc1c(NC(=O)c2cccc3ccccc23)sc2c1CCCC2: 87.2%

Sample 4
Structure (SMILES): Cc1cnc(Nc2ccc(OCCN3CCCC3)cc2)nc1Nc1cccc(S(=O)(=O)NC(C)(C)C)c1
Tested at: 10 µM
Quantity: ΔTm
Protein polybromo-1, BD3 (PBRM1, Homo sapiens, UniProt Q86U86); thermal shift: -0.07 ± 0.18 °C
Bromodomain-containing protein 2, BD2 (BRD2, Homo sapiens, UniProt P25440); thermal stability, DSF: 2.49 °C
Protein polybromo-1, BD1 (PBRM1, Homo sapiens, UniProt Q86U86); thermal stability, DSF: 0.12 °C
Transcription initiation factor TFIID subunit 1-like, BD1 (TAF1L, Homo sapiens, UniProt Q8IZX4); thermal stability, DSF: 0.41 °C
Protein polybromo-1, BD6 (PBRM1, Homo sapiens, UniProt Q86U86); thermal shift: 0.58 ± 0.08 °C
Bromodomain adjacent to zinc finger domain protein 2B, bromodomain (BAZ2B, Homo sapiens, UniProt Q9UIF8); thermal stability, DSF: -0.13 °C
Bromodomain and WD repeat-containing protein 1, BD2 (BRWD1, Homo sapiens, UniProt Q9NSI6); thermal stability, DSF: -0.1 °C
Peregrin, bromodomain (BRPF1, Homo sapiens, UniProt P55201); thermal stability, DSF: 0.94 °C
Bromodomain-containing protein 3, BD1 (BRD3, Homo sapiens, UniProt Q15059); thermal stability, DSF: 3.34 °C
Transcription intermediary factor 1-alpha (TRIM24, Homo sapiens, UniProt O15164); thermal stability, DSF: 0 °C
Histone acetyltransferase KAT2B (KAT2B, Homo sapiens, UniProt Q92831); thermal stability, DSF: 0.29 °C
Transcription initiation factor TFIID subunit 1, BD1 (TAF1, Homo sapiens, UniProt P21675); thermal stability, DSF: 0.01 °C

Excerpt of the above (sample 3):
CCN(CC)CCNC(=O)c1c(C)[nH]c(/C=C2\C(=O)Nc3ccc(F)cc32)c1C: 97.3%
N#Cc1c(NC(=O)c2cccc3ccccc23)sc2c1CCCC2: 87.2%
O=c1cc(-c2cccc3c2Sc2ccccc2S3)oc(N2CCOCC2)c1: 90.7%
Cc1cc2ncc(-c3ccccc3)nc2cc1C: 101%
O=C1C(Cl)=C(N2C(=O)CCC2=O)C(=O)c2ccccc21: 92.4%
